Measurements collected from several papers.

SMILES	assay	test system	conditions	measurement	result
Cl.[2H]C([2H])([2H])CC(=O)c1cnc(NC(=O)C2CC2)cc1Nc1cccc(-c2ncn(C([2H])([2H])[2H])n2)c1OC		human, fed, plasma	oral, 25 mg, single dose, liquid formulation	Cmax	131 ng/mL
CCn1cc(C(=O)N2CCOCC2)c(=O)c2cc(NC3Cc4ccccc4C3)cnc21		human, fed	oral suspension, 600 mg single dose, arithmetic mean	Cmax	1880 ng/mL
CCN1CCN(Cc2ccc(Nc3ncc(F)c(-c4cc(F)c5nc6n(c5c4)[C@H](C)CCC6)n3)nc2)CC1		human, plasma	200 mg multiple dosing, mean	Cmax	283 ng/mL
C=CC(=O)N(C)CCOc1c(N)ncnc1-c1cc(F)cc(NC(=O)c2ccc(C3CC3)cc2F)c1C		human	oral, 20 mg, day 7, arithmetic mean, together with: ritonavir	Cmax per dose	9 ng/mL/mg
O=C(COc1ccc(Cl)cc1)NC12CC(c3nnc([C@H]4C[C@@H](OC(F)(F)F)C4)o3)(C1)C2		healthy human volunteers fasted, plasma	oral, 200 mg single dose, arithmetic mean	Cmax	2150 nM
C[C@@H]1CCO[C@H]2Cn3cc(C(=O)NCc4ccc(F)cc4F)c(=O)c(O)c3C(=O)N12		human, body weight 25 to <30 kg, plasma	oral, 35 mg, film-coated tablet, steady state	Cmax	4000 ng/mL
CCOc1c([C@H](C)n2nc(C)c3c(N)ncnc32)cc(Cl)c(F)c1[C@@H]1CNC(=O)C1		human, DLBCL, plasma	oral, 20 mg, day 15	Cmax	2060 nM
O=C(O)CCC(=O)O.[2H]C([2H])([2H])Oc1cc(C)c2[nH]ccc2c1CN1CC[C@@H](C2CC2)C[C@H]1c1ccc(C(=O)O)cc1		healthy humans, fed	oral, 200 mg, single dose, high-fat meal	Cmax	3390 ng/mL
COc1ncc(-c2nc3c(n2C(C)C)[C@H](c2ccc(Cl)cc2)N(c2cc(Cl)cn(C)c2=O)C3=O)c(OC)n1	LC-MS/MS, noncompartmental	human, plasma	oral, 120 mg, C2D1, high-dose, geometric mean	Cmax	852 ng/mL
COc1cc(N2CCC(N3CCN(C)CC3)CC2)ccc1Nc1ncnc(Nc2ccccc2S(=O)(=O)C(C)C)n1		human, plasma	oral, 50 mg, day 1	Cmax	184 ng/mL
CO[C@H]1C[C@@H]2CC[C@@H](C)[C@@](O)(O2)C(=O)C(=O)N2CCCC[C@H]2C(=O)O[C@H]([C@H](C)C[C@@H]2CC[C@@H](OC(=O)NCCOCCOCCOCCOCCOCCOCCOCCOCCC(=O)N3CCc4cc(Cn5nc(-c6ccc7oc(N)nc7c6)c6c(N)ncnc65)ccc4C3)[C@H](OC)C2)C[C@@H](O)[C@H](C)/C=C(\C)[C@@H](O)[C@@H](OC)C(=O)[C@H](C)C[C@H](C)/C=C/C=C/C=C/1C		human patients, plasma	intravenous, 10 mg, cycle 1 day 15, 1 h infusion	Cmax	284 nM
